Experimental data from different studies.
A part holds a random share of what one study measured. “And” joins repeats or separate records; there may be more than shown.
Chain of UniProt O75676 (whole entry, looked up): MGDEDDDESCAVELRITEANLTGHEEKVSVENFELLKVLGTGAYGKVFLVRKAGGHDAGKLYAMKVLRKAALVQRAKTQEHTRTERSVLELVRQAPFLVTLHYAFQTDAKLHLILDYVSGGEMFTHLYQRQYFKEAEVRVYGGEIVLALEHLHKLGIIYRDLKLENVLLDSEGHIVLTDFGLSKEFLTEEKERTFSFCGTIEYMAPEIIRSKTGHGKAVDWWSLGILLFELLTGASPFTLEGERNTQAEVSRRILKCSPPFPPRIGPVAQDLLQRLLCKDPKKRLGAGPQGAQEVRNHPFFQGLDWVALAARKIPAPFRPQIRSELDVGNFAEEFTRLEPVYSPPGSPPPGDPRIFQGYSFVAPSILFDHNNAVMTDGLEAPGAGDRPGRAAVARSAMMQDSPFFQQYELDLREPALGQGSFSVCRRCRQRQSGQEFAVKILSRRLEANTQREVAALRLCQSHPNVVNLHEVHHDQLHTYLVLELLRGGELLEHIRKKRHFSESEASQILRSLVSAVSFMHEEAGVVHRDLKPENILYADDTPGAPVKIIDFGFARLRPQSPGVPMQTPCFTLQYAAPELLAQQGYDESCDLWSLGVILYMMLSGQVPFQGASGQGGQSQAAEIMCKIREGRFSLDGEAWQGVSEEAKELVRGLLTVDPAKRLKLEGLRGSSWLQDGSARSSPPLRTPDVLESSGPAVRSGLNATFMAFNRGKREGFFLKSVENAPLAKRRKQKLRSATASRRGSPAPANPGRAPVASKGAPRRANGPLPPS
Chain of UniProt P07948 (whole entry, looked up): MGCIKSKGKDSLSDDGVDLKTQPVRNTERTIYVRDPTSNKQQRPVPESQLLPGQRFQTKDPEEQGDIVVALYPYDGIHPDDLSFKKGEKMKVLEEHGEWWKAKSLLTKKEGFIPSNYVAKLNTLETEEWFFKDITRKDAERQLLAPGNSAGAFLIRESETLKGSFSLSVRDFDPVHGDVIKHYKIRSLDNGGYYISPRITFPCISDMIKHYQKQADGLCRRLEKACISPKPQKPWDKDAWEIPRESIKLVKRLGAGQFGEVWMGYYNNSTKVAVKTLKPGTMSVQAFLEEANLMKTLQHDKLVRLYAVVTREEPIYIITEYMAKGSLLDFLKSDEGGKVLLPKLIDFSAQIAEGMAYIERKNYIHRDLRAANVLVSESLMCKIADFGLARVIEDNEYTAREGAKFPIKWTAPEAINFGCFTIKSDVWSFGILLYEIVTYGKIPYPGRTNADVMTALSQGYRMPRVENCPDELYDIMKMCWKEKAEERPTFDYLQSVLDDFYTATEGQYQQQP
Chain of UniProt O14976 (whole entry, looked up): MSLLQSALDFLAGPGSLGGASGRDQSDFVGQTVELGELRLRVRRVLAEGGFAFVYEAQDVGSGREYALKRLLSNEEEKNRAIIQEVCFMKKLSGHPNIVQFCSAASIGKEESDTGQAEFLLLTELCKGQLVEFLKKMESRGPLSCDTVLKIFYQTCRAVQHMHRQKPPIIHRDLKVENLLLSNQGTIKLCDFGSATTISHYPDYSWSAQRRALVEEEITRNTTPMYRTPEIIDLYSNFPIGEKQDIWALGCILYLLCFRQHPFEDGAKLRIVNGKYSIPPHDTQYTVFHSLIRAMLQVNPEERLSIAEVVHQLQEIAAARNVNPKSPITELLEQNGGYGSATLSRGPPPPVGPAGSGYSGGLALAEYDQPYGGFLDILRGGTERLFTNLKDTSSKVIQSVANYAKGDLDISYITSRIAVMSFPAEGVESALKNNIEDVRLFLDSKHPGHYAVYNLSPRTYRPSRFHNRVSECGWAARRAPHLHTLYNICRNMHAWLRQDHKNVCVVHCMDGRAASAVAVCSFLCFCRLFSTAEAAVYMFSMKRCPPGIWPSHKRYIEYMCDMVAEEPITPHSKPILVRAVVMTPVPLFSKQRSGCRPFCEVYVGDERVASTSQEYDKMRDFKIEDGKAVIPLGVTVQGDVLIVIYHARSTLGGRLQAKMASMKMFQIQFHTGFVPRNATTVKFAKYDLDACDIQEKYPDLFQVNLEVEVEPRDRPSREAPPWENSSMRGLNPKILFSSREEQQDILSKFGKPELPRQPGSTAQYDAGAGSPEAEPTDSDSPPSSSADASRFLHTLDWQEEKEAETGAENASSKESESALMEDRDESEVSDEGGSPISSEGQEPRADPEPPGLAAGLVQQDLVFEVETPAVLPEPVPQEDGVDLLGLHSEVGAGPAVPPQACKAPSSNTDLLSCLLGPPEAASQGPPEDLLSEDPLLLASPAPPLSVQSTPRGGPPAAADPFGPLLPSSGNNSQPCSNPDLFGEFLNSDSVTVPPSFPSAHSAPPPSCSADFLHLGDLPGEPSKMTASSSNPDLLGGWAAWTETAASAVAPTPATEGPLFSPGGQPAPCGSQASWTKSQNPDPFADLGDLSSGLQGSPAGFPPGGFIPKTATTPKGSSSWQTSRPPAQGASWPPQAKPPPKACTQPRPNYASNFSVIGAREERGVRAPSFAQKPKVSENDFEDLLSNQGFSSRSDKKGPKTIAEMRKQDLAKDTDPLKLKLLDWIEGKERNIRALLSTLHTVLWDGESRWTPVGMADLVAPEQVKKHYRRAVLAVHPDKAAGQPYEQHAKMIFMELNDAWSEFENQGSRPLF
Chain of UniProt P31751 (whole entry, looked up): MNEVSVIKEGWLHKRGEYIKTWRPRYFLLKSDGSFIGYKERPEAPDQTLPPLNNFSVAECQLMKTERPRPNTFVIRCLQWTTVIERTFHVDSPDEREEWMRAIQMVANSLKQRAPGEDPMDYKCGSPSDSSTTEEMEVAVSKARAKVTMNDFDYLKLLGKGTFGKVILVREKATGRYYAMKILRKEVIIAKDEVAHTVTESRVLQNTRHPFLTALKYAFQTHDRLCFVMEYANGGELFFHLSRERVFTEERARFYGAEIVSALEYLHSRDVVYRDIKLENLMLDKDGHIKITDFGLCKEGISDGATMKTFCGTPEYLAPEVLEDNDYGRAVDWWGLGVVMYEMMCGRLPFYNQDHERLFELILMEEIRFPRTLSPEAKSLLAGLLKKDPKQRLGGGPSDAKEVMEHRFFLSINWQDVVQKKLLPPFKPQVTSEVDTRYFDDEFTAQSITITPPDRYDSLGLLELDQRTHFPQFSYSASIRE
Chain of UniProt P51451 (whole entry, looked up): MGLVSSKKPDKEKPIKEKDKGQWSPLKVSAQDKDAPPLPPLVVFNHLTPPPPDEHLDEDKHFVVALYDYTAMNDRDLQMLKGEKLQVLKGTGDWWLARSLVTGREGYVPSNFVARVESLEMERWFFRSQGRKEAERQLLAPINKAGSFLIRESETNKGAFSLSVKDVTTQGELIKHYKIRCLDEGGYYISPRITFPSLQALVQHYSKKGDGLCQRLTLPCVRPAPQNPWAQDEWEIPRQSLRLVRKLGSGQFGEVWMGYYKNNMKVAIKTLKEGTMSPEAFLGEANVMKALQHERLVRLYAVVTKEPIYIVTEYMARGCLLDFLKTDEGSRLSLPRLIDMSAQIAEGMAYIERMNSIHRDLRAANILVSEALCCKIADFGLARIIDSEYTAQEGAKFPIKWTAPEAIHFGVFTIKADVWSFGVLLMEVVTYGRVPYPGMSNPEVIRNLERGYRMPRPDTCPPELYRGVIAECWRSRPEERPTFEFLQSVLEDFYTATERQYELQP
Chain of UniProt O75914 (whole entry, looked up): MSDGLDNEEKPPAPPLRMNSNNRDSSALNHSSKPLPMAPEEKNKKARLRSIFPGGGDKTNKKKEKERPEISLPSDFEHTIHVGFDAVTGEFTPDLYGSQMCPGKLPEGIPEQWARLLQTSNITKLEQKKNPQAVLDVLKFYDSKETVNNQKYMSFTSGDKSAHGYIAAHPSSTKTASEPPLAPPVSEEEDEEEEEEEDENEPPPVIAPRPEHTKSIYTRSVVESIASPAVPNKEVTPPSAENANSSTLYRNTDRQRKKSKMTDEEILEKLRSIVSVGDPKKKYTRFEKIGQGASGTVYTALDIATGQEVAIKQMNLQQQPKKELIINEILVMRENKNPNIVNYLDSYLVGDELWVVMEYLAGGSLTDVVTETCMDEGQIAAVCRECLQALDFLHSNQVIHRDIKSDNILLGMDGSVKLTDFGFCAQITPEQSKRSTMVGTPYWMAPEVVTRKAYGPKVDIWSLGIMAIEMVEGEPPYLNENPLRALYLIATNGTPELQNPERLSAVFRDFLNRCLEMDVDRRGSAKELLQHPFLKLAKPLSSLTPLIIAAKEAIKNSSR
Chain of UniProt Q96L34 (whole entry, looked up): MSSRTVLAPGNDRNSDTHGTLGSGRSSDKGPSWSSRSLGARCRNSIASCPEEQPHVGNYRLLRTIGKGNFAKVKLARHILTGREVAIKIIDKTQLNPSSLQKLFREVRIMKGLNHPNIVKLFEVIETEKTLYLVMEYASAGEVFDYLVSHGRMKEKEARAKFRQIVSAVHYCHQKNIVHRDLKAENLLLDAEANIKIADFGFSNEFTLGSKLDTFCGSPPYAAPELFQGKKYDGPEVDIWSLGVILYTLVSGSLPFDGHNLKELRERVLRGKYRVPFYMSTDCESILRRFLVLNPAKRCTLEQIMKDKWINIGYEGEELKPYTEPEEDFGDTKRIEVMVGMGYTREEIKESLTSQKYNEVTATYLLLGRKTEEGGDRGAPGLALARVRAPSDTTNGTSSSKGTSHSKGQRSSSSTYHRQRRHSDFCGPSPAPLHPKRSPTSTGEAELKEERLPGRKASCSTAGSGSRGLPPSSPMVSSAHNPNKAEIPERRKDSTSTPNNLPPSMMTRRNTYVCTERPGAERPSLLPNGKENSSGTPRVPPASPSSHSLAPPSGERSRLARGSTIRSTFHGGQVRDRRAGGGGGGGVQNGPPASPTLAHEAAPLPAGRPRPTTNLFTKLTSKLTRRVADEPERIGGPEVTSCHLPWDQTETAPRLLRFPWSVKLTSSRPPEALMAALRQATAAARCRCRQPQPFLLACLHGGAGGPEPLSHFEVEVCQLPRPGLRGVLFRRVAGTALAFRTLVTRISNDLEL

Set 1
Structure (SMILES): COc1ccc(-c2c(Nc3ccccn3)[nH]c3c(C4=CCCCC4)c(-c4ccccc4)nn3c2=O)cc1
Sample: plasma
Route: oral
For cancer patients; 50 mg, 8 h post-dose, single dose: “plasma concentration, mean” read 383 ng/mL.
It gave 9530 ng/mL for “plasma concentration, mean” (LC-MS/MS; human; 200 mg twice daily, 8 h).
For cancer patients; 50 mg, 4 h post-dose, single dose: “plasma concentration, mean” read 478 ng/mL.
It gave 6120 ng/mL for “plasma concentration, mean” (human patients; 150 mg once daily, 2 h, cycle 1).
cancer patients; 200 mg, 0.5 h post-dose, single dose — “plasma concentration, mean”: 135 ng/mL.

Set 2
SMILES: O=S(=O)(NC1CCC(c2cc(F)ccc2F)(S(=O)(=O)c2ccc(Cl)cc2)CC1)C(F)(F)F (stereo not drawn)
Read-out: cell-free assay
Technique: competition with immobilised ligand
Tested at: 1 µM
The remaining binding was 91% (LYN (Homo sapiens, UniProt P07948)).
For GAK (Homo sapiens, UniProt O14976): remaining binding read 89%.
It gave 100% for remaining binding (NEK4 (Homo sapiens, UniProt P51957)).
It gave 97% for remaining binding (FLT3 (Homo sapiens, UniProt P36888, K663Q)).
It gave 89% for remaining binding (BLK (Homo sapiens, UniProt P51451)).
It gave 100% for remaining binding (PRKG2 (Homo sapiens, UniProt Q13237)).

Set 3
Compound: Nc1nc(Nc2ccc(S(N)(=O)=O)cc2)nn1C(=S)Nc1c(F)cccc1F
Read-out: enzyme activity
Mode: inhibitor
Tested at: 0.5 µM
Reference: control
The remaining activity was 35.4% (PAK3 (Homo sapiens, UniProt O75914)).
KDR (Homo sapiens, UniProt P35968) — remaining activity: 6.55%.
The remaining activity was 40.4% (DCLK2 (Homo sapiens, UniProt Q8N568)).
It gave 78.5% for remaining activity (MAPK11 (Homo sapiens, UniProt Q15759)).
It gave 3.06% for remaining activity (MINK1 (Homo sapiens, UniProt Q8N4C8)).
The remaining activity was 103% (AKT2 (Homo sapiens, UniProt P31751)).
ROCK1 (Homo sapiens, UniProt Q13464) — remaining activity: 0.17%.
For CLK3 (Homo sapiens, UniProt P49761): remaining activity read 4.64%.
It gave 2.33% for remaining activity (MARK4 (Homo sapiens, UniProt Q96L34)).
RPS6KA4 (Homo sapiens, UniProt O75676) — remaining activity: 42.8%.
For MET (Homo sapiens, UniProt P08581): remaining activity read 40.4%.
For PNCK (Homo sapiens, UniProt Q6P2M8): remaining activity read 89.1%.
For Cyclin-dependent kinase 1, with cyclin A (CDK1, Homo sapiens, UniProt P06493): remaining activity read -0.154%.

Set 4
Cell line: mouse MPNST tumor cells
Technique: high-content immunofluorescence imaging
Refers to: nuclear SOX9
Tested at: 10 µM
Time: 12 h
Setting: mean of 2 replicates
Reference: DMSO control
Reading: higher = more nuclear SOX9
`Cc1c(-c2ccc(-c3ccccc3F)cc2)nc2ccc(F)cc2c1C(=O)O`: “nuclear SOX9 intensity” 122 % of DMSO.
`CC(=O)N[C@@H](CC(C)C)C(=O)O`: “nuclear SOX9 intensity” 94.9 % of DMSO.
`CCC[C@@H]1C[C@@H](C(=O)N[C@@H]([C@H]2O[C@H](SC)[C@H](O)[C@@H](O)[C@H]2O)[C@H](C)Cl)N(C)C1` — result for “nuclear SOX9 intensity”: 99.4 % of DMSO.
`CC[C@H](C)C(=O)O[C@H]1C[C@@H](C)C=C2C=C[C@H](C)[C@H](CC[C@@H]3C[C@@H](O)CC(=O)O3)[C@H]21`: “nuclear SOX9 intensity” 123 % of DMSO and 112 % of DMSO.
For `C=CC[N@@+]12CC[C@@]34c5ccccc5N5/C=C6/[C@H]7C[C@H]8[C@@]9(CC[N@@+]8(CC=C)C/C7=C/CO)c7ccccc7N(/C=C(/[C@@H](C[C@@H]31)/C(=C\CO)C2)[C@H]54)[C@@H]69`, “nuclear SOX9 intensity” read 94.3 % of DMSO.
For `NC(=O)c1cccnc1`, “nuclear SOX9 intensity” read 105 % of DMSO.

A few entries again (set 2):
The remaining binding was 91% (LYN (Homo sapiens, UniProt P07948)).
For GAK (Homo sapiens, UniProt O14976): remaining binding read 89%.
